Measurements from different studies.
Each numbered part is a random draw from the data of one study; scales do not carry over between parts. Positions count from the first letter of the parent shown.
Sequence of UniProt Q9C7I9 (whole entry, looked up): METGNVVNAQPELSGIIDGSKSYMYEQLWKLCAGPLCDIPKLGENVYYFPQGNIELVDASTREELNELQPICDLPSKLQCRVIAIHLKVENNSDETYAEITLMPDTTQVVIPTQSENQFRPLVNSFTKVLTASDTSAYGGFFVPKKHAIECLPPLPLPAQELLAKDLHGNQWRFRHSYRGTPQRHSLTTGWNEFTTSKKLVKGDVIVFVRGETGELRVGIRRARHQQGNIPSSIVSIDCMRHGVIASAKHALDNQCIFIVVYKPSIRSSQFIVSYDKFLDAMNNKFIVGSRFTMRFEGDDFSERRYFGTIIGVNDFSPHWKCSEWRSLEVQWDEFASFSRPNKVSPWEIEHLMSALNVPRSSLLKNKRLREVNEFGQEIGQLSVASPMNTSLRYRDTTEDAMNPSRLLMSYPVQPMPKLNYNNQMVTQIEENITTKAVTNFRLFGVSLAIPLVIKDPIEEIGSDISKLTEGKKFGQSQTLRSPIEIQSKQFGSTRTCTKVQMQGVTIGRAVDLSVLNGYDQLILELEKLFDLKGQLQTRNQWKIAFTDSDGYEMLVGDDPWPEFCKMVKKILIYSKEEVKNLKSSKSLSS
Sequence of UniProt P93830 (whole entry, looked up): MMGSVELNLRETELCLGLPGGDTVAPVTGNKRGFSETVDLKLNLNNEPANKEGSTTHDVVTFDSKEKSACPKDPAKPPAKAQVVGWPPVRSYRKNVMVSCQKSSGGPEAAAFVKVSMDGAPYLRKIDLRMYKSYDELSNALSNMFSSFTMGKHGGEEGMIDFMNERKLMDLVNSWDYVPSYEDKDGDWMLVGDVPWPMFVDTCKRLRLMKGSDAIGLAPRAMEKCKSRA
Sequence of UniProt Q8L7G0 (whole entry, looked up): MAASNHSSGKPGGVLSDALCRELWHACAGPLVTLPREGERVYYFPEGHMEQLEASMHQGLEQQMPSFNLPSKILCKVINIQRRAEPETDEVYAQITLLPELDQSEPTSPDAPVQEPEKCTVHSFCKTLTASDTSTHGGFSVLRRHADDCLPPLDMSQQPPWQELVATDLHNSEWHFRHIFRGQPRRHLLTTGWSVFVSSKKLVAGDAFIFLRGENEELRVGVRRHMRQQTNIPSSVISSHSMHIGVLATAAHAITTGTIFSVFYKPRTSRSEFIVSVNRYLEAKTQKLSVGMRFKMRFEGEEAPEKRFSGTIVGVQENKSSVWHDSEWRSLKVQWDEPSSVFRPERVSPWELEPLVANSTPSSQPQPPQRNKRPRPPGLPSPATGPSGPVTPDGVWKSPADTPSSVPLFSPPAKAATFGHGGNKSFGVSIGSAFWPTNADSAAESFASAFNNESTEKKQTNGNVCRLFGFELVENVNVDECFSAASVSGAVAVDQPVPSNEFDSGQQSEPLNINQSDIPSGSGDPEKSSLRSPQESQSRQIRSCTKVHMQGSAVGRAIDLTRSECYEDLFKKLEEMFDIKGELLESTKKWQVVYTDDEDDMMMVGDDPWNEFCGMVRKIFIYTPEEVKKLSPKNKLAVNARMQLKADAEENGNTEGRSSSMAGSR
Sequence of UniProt Q9ZTX8 (whole entry, looked up): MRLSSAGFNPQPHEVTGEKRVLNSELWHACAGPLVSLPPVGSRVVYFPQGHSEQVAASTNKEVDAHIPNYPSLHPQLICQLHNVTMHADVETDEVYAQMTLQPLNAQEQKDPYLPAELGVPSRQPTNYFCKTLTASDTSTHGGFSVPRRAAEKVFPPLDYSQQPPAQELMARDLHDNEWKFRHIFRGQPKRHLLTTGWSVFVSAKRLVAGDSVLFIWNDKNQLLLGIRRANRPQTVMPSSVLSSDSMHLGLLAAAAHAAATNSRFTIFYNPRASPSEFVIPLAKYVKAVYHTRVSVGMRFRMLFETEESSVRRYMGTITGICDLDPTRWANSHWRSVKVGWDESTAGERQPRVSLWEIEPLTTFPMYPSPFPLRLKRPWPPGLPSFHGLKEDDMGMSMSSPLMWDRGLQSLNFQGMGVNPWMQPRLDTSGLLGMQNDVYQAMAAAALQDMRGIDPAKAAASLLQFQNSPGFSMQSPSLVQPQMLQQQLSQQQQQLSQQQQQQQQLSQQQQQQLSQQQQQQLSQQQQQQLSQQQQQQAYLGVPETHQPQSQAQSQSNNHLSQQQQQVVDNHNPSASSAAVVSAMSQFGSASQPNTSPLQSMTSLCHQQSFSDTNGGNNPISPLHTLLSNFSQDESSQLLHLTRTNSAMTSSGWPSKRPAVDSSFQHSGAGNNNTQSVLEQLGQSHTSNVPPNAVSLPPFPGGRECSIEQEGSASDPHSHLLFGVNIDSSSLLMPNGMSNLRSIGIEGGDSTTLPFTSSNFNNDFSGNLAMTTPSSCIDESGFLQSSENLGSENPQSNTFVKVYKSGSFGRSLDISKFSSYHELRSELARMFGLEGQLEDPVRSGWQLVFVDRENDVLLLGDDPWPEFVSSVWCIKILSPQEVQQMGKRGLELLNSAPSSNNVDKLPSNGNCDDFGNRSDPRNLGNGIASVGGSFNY

Study 1 — Molecule: B1 (IAA11); technique: two-hybrid; setting: weak activation fusion; reading: higher = firmer interaction
B1: IAA11 (Arabidopsis thaliana, UniProt Q38829); chain MEGGSASGSASALSNDENLVVSCEDSSSPIGNELELGLTLSLGRKGYRDCRVYADDSSSSSSSSSLSRASVIAGIKRTADSMAATSGQVVGWPPIRTYRMNSMVNQAKASATEDPNLEISQAVNKNRSDSTKMRNSMFVKVTMDGIPIGRKIDLNAHKCYESLSNTLEEMFLKPKLGSRTLETDGHMETPVKILPDGSSGLVLTYEDKEGDWMLVGDVPWGMFIGSVRRLRIMKTSEATGKAQMIL
It gave 0 for positive tests (ARF1 538-665 (Arabidopsis thaliana, UniProt Q8L7G0); baseline: out of 4 tests).
For ARF20 484-590 (Arabidopsis thaliana, UniProt Q9C7I9); baseline: out of 4 tests: positive tests read 0.
For IAA17 (Arabidopsis thaliana, UniProt P93830); baseline: out of 2 tests: positive tests read 0.
ARF6 790-935 (Arabidopsis thaliana, UniProt Q9ZTX8); baseline: out of 4 tests — positive tests: 3.

Study 2 — technique: protein binding microarray; molecule type: double-stranded DNA, one strand shown; matrix: in vitro; tested at: not given; baseline: not given; reading: higher = stronger binding
Target: Histone acetyltransferase KAT6A, winged helix 2, GST fusion (KAT6A, Homo sapiens, UniProt Q92794, residues 85-181)
Setting: 8-mer, flanks averaged, mean of 2 arrays, mostly near background
Construct (chain): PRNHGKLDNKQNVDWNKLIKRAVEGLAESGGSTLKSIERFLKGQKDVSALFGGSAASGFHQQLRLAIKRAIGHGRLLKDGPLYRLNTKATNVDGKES
For `GCTTGGCC`, the E-score was 0.155.
For `ACAGTCCT`, the E-score was -0.295.
For `AATCTTCG`, the E-score was 0.133.
For `GCCTAGTA`, the E-score was -0.054.
For `ATGCCTTC`, the E-score was -0.0815.
`ATGACACA` has an E-score of 0.0444.
With `CGGTAACG` the E-score was -0.0869.
`ACATCTGC` gave an E-score of -0.133.
`GCTAAAAA` gave an E-score of 0.0332.
The E-score of `CTTTCCAC` is reported as -0.024.
The E-score of `CCGGACTC` is reported as 0.192.
With `CGCGAGTA` the E-score was 0.08.
With `ACCAGTCG` the E-score was 0.0356.
`AGACTCTC` has an E-score of -0.129.
The E-score of `AACCTCAT` is reported as 0.00257.
`GAAGGTAA` has an E-score of 0.0926.
The E-score of `AAACCGTG` is reported as -0.0321.
`ATTTCCCA` gave an E-score of 0.172.
With `ACAAACCG` the E-score was -0.0394.
For `CGCTCCTA`, the E-score was 0.0606.
With `AGATTGGG` the E-score was 0.0626.
`AAGGGGGG` gave an E-score of -0.0711.
For `CGGGCTGA`, the E-score was 0.167.
The E-score of `CCCCTTTA` is reported as -0.0828.
The E-score of `AGCGTGGG` is reported as 0.0338.

Study 3 — technique: Sort-seq; refers to: YFP reporter; matrix: E. coli; setting: PhoQ-PhoP variant library; together with: 10 µM Mg2+; baseline: high Mg2+ state; reading: higher = stronger signaling
Molecule: PhoQ, residues 284 288 289 292 302 303 SIHLQL
The fold induction was 13.9 (PhoP, residues 12 14 15 18 19 TPWTL (Escherichia coli, UniProt P23836)).
For PhoP, residues 12 14 15 18 19 LHHYF (Escherichia coli, UniProt P23836): fold induction read 4.
It gave 1.82 for fold induction (PhoP, residues 12 14 15 18 19 VGHWL (Escherichia coli, UniProt P23836)).
PhoP, residues 12 14 15 18 19 NFFVT (Escherichia coli, UniProt P23836) — fold induction: 12.7.

Study 4 — technique: universal PBM; molecule type: double-stranded DNA, one strand shown; matrix: in vitro; tested at: 600 nM; reading: higher = stronger binding
Target: Sal-like protein 4, full length isoform A (SALL4, Homo sapiens, UniProt Q9UJQ4, residues 1-1053)
Sequence of UniProt Q9UJQ4 (whole entry, looked up): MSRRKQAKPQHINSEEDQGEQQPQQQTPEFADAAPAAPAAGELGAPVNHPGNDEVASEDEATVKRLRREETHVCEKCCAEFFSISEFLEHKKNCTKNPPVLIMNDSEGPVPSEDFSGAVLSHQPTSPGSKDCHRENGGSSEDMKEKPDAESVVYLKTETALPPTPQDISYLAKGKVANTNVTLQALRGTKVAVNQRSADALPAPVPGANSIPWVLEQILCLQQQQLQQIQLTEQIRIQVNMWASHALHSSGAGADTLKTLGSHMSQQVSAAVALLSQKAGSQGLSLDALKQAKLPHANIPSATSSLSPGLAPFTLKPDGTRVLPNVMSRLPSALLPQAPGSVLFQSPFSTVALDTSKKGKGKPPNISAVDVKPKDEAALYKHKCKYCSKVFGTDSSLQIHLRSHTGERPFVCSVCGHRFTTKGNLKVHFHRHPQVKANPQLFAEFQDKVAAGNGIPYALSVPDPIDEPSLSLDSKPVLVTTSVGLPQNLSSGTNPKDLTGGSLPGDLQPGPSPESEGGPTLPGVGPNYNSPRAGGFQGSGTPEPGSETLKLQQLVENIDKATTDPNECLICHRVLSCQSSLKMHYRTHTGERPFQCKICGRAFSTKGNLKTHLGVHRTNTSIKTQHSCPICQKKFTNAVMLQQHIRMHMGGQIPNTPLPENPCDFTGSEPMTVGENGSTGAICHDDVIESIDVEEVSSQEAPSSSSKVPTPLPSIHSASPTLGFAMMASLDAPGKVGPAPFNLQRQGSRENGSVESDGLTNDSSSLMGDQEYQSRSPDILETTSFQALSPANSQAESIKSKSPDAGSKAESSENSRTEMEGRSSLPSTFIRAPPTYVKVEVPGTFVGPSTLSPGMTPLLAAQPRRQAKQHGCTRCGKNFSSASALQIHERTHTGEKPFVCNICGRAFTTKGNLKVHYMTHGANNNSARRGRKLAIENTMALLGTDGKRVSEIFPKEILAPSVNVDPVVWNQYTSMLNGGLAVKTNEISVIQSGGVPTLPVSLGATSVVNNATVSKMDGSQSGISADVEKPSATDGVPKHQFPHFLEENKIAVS
Setting: 8-mer, flanks averaged, mean of replicates
`GCTCCTCA` gave an E-score of -0.212.
`AGTTGCGC` has an E-score of -0.112.
`CAGCACAG` has an E-score of -0.124.
The E-score of `TAGAGGGA` is reported as 0.0224.
For `CGTCGAGC`, the E-score was -0.165.
`GGACTGCC` gave an E-score of -0.311.
The E-score of `GCTCCCCA` is reported as -0.243.
With `GTGTTAGA` the E-score was 0.117.
The E-score of `AGGGTTAC` is reported as -0.173.
The E-score of `AAGGACGC` is reported as -0.16.
For `CATAGCAA`, the E-score was 0.168.
`GGGCAACA` has an E-score of -0.0881.
For `AAGATCCA`, the E-score was -0.141.
With `CCCCATAG` the E-score was -0.131.
`GCGAGGCC` gave an E-score of -0.398.
`GGGTTCTA` gave an E-score of -0.124.
`CGCAAGCC` has an E-score of -0.285.
For `GGCGCGGA`, the E-score was -0.383.
The E-score of `CTATAGAA` is reported as 0.293.
With `AAAATGGG` the E-score was 0.192.
`ACATCCTC` has an E-score of -0.021.
`AAAACAAC` has an E-score of 0.13.
With `GGTGAGAC` the E-score was -0.186.
`ACGCCGAA` has an E-score of -0.195.
`AAACGCGA` has an E-score of 0.0198.

Study 5 — target: JUNB, bZIP domain (human); technique: DHFR protein complementation; matrix: yeast; baseline: wild-type JUN-FOS pair; reading: higher = stronger binding
Setting: single substitutions, most at no-binding floor
Starting sequence: JUN, bZIP domain (human); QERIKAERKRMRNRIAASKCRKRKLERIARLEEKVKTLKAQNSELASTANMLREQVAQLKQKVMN; partner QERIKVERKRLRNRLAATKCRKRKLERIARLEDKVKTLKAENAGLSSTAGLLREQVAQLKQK
For `E33T`, the binding fitness was -1.34 natural log.
`S47Q` gave a binding fitness of -0.945 natural log.
`E33S` gave a binding fitness of -1.24 natural log.
`V35L` gave a binding fitness of -1.3 natural log.
For `T37M`, the binding fitness was -0.776 natural log.
With `A46K` the binding fitness was -0.664 natural log.
For `E33P`, the binding fitness was -1.52 natural log.
`E44T` has a binding fitness of -1.24 natural log.
For `M51L`, the binding fitness was -1.04 natural log.
The binding fitness of `L31D` is reported as -1.37 natural log.
`S43F` gave a binding fitness of -1.14 natural log.
`Q41C` has a binding fitness of -1.5 natural log.
`Q55D` gave a binding fitness of -1.35 natural log.
`V35Y` has a binding fitness of -1.43 natural log.
`A46W` gave a binding fitness of -1.28 natural log.
`K39V` gave a binding fitness of -1.15 natural log.
`M51S` has a binding fitness of -1.12 natural log.
For `K39S`, the binding fitness was -1.16 natural log.
`A49L` gave a binding fitness of -1.08 natural log.
`K34R` gave a binding fitness of -1.07 natural log.
With `T37Q` the binding fitness was -0.757 natural log.
For `K39R`, the binding fitness was -1.1 natural log.
`S47D` gave a binding fitness of -1.05 natural log.
`E54K` has a binding fitness of -1.28 natural log.

Study 6 — technique: DHFR PCA, deep sequencing; matrix: yeast; together with: (+)-ABA 1.4 µM; baseline: wild-type fitted maximum; reading: higher = stronger binding
Target: ABI1, truncated, D143A, DHFR fusion (Arabidopsis thaliana)
Setting: methotrexate growth selection, single substitutions
Starting sequence: PYL1, truncated, DHFR fusion (Arabidopsis thaliana); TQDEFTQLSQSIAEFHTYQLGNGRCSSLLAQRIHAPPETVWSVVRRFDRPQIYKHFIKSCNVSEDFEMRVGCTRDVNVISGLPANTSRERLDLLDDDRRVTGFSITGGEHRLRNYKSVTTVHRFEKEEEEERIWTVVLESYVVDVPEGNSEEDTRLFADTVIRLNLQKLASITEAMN
Under “relative binding score”, `Q19C` is recorded as 41.2%.
Under “relative binding score”, `E131A` is recorded as 69.8%.
For `M68L`, “relative binding score” read 83.1%.
For `Y141K`, “relative binding score” read -15.1%.
For `F15T`, “relative binding score” read 4.66%.
For `H122N`, “relative binding score” read 11.1%.
Under “relative binding score”, `T1F` is recorded as 44.9%.
For `W134C`, “relative binding score” read 66.4%.
`R49P`: “relative binding score” 6.73%.
Under “relative binding score”, `D92H` is recorded as -2.68%.
`R46Q` — result for “relative binding score”: 63.8%.
For `H110M`, “relative binding score” read 19.5%.
`R24F`: “relative binding score” -3.36%.
`S80L` — result for “relative binding score”: 15.7%.
`V70I` — result for “relative binding score”: 52.9%.
Under “relative binding score”, `R45Q` is recorded as -1.06%.
For `K116A`, “relative binding score” read 22.2%.
`Q31L` — result for “relative binding score”: -2.1%.
`V40L`: “relative binding score” 2.66%.
`D153V`: “relative binding score” -2.38%.
`V78W`: “relative binding score” 63.4%.
Under “relative binding score”, `A30W` is recorded as 46.6%.
For `S59Y`, “relative binding score” read 4.4%.
For `A35Q`, “relative binding score” read -24.9%.
`N61C` — result for “relative binding score”: 54.2%.

For quick reference, copied from above (study 4):
`GGGCAACA` has an E-score of -0.0881.
For `AAGATCCA`, the E-score was -0.141.
With `CCCCATAG` the E-score was -0.131.
`GCGAGGCC` gave an E-score of -0.398.
`GGGTTCTA` gave an E-score of -0.124.
`CGCAAGCC` has an E-score of -0.285.
